Experimental data gathered from unrelated publications.
A part holds a random share of what one study measured. Positions count from the first letter of the parent shown.

Set 1
Target: Interferon regulatory factor 7, full length, phosphomimetic (IRF7, Homo sapiens, UniProt Q92985, residues 1-503, S471D/S472D/S475D/S476D/S477D/S483D/S484D/S487D)
Technique: protein-binding microarray
Molecule type: double-stranded DNA, one strand shown
Matrix: in vitro
Tested at: 2200 nM top
Notes: 60-bp whole probe
Added: salmon DNA 0.4 mg/ml
Reference: random background probes
Direction: higher = stronger binding
All sequences stand within: GCCTAGCAC … GTCTTGATTCGCTTGACGCTGCTG
Target sequence (chain): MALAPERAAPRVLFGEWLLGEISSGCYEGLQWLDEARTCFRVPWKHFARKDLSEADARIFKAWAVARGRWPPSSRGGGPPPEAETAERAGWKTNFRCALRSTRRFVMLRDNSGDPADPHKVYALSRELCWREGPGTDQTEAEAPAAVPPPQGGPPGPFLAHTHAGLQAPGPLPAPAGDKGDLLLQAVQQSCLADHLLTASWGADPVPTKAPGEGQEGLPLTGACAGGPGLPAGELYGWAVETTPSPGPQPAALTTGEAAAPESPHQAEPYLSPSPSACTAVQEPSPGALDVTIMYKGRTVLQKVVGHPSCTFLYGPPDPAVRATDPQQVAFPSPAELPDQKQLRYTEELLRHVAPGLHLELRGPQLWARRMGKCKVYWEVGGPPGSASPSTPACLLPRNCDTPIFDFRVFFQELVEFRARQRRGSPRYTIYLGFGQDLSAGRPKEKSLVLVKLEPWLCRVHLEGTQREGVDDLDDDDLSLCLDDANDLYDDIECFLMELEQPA
Sequence	fitted relative affinity
TTAGGTATCTTACTGCTTTAGTGCTAG	0.236 z-score
TCATCTATCTTAAATAGGACTGTGCTA	0.106 z-score
TTAGATCTCAGTTTCGCTTAGTGCTAG	5.47 z-score
AAATGTGTTAGAAACAGGTTGTGCTAG	-0.204 z-score
TTAGAGATCAGTTTCGATTAGTGCTAG	5.35 z-score
GGTGTCTAGGTTAGGGATTAGTGCTAG	-0.0959 z-score

Set 2
Target: RNA binding protein fox-1 homolog 2, RRM domain, GST-SBP tag (RBFOX2, Homo sapiens, UniProt O43251-10, residues 100-194)
Technique: RNA Bind-n-Seq
Molecule type: RNA
Matrix: in vitro
Tested at: 365 nM
Notes: natural RNA segment, single round, ends assumed
Reference: no-protein control
Direction: higher = stronger binding
Target sequence (chain): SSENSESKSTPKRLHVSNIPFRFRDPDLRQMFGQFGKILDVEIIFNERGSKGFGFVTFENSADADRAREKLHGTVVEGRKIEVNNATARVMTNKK
Sequence	RBNS enrichment (R)
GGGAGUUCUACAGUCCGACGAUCAACACAUCCCUUCAGUGACUCAGAGUCUCAGAAGGAAACCCUGACUCCUGGGGCCAUUUCCUAAUGGUACUGUAAGCCAAGCAGCUUUGCUUCUGCCUCUGUUUCCAAGCUGGAAUUCUCGGGUGCCAA	0.219
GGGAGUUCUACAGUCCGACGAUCGACUUUCCUGUGUGGCCACAGAAACCUGGGGGCAUUCCGUUGCAGAGGUGUCCUCUGUCACGUGUGUAACAGCUGGAACACAGUGGCCGUCUUCCCUCGGCUCUUGUUGGUGGAAUUCUCGGGUGCCAA	0.328
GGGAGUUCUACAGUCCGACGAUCAAGAAGUAUGAGAGUUGGGCUAUGGAGGGGUUGGAGGGAGGCCAGACAGGCACCAGGAGCAAGUCUGCCUCAGCAGCAGUGAGCUCUUUAUCUGGGAGGCCCUGUUCUGGUGGAAUUCUCGGGUGCCAA	0.598
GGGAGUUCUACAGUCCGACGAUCACUUGGCUGCACCCCACUGUCCCUUGCAAGACAGGUUCUGGAGCCAGGAGCAACUGUCCAGCCCUCCAGAAGAGACAGCAAGCAGCCCCCCUACCCACUCUGGCCUCCCCUGGAAUUCUCGGGUGCCAA	0.418
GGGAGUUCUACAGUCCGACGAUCCUGCAGUGCUACAACGUGCUGGAAGAUGUGUCAGAUUUGCUUUAAAGAUGAGAAUCUGGUGUUUCUGUACUUUAUUAUUUUCAAUAAAACUCAAUGUUUUGAACUUUUAAUGGAAUUCUCGGGUGCCAA	0.307
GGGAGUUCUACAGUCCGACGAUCUUGUAUAAAUUUGUCAUGUUGAACAGCAUUUUAGCAUGGUAAGUUCCCUUAGCUAUAUGAAUUUUGGCAUGUUUCAGAGAGAUCAGUAAAUAAAAUAUUAGAUAAAAUAUUGGAAUUCUCGGGUGCCAA	1.32

Set 3
Target: CCNA2, cyclin fold, Cln2 fusion (human)
Technique: yeast growth competition, sequencing
Matrix: yeast
Notes: weak parent motif
Reference: not given
Direction: higher = stronger binding
Parent: LLGL2 docking peptide (human); KSLKKSLRQSFRR
Change	normalised enrichment score
KSLKKSLRQSFRA [R13A]	1.14
KSLKKALRQSFRR [S6A]	0.689
KALKKSLRQSFRR [S2A]	0.997
KSLKKSLRASFRR [Q9A]	1.45
KSLKKSLAQSFRR [R8A]	1.31
KSLKASLRQSFRR [K5A]	1.25

Further values, each from its own experiment
Molecule	target	test	test system	setting	scale	quantity	value
PhoQ, residues 284 288 289 292 302 303 NLCILV	PhoP, residues 12 14 15 18 19 SQCLL (Escherichia coli, UniProt P23836)	Sort-seq, measured: YFP reporter	E. coli	PhoQ-PhoP variant library, added: 10 µM Mg2+	reference: high Mg2+ state, higher = stronger signaling	fold induction	12.5

For quick reference, copied from above (set 1):
Sequence	fitted relative affinity
TTAGAGATCAGTTTCGATTAGTGCTAG	5.35 z-score
TCATCTATCTTAAATAGGACTGTGCTA	0.106 z-score
